Experimental data from different studies.
Each numbered part is a random draw from the data of one study; scales do not carry over between parts.
UniProt Q16539, sequence (whole entry, looked up): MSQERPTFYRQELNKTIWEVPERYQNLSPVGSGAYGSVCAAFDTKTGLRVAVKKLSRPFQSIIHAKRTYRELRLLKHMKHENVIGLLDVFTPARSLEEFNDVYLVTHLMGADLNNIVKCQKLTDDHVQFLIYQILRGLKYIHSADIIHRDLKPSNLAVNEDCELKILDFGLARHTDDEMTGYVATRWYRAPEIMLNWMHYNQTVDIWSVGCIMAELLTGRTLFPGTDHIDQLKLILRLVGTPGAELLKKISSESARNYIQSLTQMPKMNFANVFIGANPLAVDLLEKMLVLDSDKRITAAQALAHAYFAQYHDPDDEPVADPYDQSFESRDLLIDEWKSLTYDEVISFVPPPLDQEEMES
UniProt Q86UE8, sequence (whole entry, looked up): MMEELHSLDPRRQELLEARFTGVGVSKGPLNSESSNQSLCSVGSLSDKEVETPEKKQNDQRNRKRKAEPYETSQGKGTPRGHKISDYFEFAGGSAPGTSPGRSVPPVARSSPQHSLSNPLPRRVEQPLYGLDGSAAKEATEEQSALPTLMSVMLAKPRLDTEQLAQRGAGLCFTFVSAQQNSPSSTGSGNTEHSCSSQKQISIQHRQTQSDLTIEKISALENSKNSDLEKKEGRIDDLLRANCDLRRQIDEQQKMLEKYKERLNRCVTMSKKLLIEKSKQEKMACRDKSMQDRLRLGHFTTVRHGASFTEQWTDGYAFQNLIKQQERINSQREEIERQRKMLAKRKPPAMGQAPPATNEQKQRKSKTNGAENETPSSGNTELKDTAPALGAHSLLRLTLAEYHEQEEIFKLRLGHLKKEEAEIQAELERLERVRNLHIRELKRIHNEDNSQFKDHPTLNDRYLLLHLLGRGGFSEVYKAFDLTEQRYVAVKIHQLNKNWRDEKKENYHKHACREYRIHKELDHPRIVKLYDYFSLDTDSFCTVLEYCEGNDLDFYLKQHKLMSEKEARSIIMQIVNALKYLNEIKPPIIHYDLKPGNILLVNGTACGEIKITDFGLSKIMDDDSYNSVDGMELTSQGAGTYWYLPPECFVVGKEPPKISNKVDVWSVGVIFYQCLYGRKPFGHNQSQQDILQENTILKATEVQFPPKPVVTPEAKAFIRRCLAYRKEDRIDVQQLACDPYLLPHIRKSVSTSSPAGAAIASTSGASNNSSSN
UniProt P08581, sequence (whole entry, looked up): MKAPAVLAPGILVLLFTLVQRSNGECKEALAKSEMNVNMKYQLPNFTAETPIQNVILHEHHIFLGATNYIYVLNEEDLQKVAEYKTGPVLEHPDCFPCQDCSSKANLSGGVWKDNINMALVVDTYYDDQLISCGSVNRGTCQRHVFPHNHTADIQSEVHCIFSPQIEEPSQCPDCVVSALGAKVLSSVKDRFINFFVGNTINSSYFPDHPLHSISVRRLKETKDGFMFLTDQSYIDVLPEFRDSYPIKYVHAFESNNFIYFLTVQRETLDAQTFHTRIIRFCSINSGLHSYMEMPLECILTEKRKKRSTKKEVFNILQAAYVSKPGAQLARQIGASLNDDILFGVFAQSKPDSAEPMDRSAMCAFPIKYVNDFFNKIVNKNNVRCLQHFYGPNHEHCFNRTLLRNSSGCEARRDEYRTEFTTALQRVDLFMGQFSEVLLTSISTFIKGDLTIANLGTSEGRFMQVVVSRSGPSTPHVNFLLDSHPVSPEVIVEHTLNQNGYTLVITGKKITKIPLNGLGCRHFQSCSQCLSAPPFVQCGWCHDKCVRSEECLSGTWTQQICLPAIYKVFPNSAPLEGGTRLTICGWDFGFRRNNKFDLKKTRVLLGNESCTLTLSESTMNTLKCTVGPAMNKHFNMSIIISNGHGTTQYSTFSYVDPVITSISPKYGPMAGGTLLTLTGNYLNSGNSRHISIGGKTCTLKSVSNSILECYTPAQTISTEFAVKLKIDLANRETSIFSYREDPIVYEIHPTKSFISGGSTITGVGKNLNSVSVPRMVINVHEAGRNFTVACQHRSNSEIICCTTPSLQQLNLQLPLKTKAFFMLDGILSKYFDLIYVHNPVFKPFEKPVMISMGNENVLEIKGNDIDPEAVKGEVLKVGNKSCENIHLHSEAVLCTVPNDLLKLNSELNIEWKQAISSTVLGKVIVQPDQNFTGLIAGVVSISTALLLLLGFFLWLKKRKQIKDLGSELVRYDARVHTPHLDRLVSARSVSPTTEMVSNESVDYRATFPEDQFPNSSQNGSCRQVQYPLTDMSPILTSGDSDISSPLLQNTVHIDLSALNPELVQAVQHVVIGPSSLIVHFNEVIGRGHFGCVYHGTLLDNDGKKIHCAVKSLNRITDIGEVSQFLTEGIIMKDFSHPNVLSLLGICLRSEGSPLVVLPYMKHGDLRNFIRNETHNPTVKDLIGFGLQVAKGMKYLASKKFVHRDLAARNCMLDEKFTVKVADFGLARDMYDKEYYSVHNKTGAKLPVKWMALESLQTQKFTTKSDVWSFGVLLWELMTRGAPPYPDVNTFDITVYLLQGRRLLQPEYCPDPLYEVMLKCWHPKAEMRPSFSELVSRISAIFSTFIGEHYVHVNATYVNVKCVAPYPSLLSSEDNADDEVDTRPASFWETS
UniProt Q02750, sequence (whole entry, looked up): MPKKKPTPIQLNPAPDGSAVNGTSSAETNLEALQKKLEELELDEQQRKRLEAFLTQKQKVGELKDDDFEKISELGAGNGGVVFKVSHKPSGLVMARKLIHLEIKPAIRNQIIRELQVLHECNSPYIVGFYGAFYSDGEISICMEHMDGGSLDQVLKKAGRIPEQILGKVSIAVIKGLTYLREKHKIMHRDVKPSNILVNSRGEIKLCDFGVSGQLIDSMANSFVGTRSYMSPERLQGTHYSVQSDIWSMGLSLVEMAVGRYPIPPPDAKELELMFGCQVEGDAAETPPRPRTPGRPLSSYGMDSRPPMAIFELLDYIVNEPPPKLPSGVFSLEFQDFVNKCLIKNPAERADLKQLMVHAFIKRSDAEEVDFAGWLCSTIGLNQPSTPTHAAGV
UniProt Q9H0K1, sequence (whole entry, looked up): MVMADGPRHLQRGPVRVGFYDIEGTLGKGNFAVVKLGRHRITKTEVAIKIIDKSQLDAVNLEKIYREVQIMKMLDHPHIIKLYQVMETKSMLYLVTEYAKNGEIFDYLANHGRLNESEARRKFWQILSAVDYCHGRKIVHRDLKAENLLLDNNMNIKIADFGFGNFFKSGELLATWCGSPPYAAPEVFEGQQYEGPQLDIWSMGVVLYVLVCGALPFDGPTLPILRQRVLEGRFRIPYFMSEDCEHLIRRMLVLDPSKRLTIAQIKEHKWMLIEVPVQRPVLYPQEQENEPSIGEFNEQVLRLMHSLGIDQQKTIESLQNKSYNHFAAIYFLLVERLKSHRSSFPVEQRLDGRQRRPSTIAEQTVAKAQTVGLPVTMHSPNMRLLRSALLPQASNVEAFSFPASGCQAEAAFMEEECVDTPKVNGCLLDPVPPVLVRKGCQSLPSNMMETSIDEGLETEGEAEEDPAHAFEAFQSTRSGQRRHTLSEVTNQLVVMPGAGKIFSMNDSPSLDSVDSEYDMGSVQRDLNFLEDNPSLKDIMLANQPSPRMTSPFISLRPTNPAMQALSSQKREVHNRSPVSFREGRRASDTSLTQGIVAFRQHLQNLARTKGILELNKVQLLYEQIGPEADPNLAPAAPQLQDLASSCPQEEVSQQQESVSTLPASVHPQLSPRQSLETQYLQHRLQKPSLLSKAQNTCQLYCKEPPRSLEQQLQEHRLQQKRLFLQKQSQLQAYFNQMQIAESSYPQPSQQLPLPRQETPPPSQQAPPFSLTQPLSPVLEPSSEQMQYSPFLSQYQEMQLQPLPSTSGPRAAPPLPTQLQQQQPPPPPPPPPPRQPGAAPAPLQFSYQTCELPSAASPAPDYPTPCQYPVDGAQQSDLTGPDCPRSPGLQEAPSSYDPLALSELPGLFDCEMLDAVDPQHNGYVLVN
UniProt Q9HBH9, sequence (whole entry, looked up): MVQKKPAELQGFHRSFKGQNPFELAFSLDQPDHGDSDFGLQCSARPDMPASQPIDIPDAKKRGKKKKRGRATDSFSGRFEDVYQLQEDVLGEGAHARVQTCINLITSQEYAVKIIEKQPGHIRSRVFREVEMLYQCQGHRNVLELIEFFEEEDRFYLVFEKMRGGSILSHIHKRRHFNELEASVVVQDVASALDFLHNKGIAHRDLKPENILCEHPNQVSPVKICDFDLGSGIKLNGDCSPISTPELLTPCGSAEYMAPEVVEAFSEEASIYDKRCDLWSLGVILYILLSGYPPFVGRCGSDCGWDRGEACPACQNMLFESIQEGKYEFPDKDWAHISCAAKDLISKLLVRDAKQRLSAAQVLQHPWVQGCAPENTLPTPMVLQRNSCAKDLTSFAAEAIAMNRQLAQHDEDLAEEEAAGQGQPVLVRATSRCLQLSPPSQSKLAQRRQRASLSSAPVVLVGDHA
UniProt P06493, sequence (whole entry, looked up): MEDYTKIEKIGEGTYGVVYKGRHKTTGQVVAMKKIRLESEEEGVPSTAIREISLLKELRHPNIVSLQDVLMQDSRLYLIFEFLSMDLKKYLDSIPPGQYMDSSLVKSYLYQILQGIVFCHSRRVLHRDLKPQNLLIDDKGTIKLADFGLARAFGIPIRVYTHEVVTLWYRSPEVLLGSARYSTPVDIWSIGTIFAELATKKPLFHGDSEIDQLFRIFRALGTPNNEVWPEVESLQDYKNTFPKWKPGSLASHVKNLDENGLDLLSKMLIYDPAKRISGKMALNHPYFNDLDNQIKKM
UniProt O75716, sequence (whole entry, looked up): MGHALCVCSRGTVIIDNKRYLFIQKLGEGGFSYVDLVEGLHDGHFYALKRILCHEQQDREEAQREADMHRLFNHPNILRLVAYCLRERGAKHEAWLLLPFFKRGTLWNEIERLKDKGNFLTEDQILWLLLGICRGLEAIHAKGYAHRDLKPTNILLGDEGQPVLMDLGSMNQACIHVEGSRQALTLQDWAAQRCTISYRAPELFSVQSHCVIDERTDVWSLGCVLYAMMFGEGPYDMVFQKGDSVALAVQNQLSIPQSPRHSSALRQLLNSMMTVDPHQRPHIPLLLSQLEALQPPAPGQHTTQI

Set 1
Compound: c1ccc(-c2[nH]ncc2-c2ccnc3ccccc23)nc1
Observed: enzyme activity
Action: inhibitor
Tested at: 0.5 µM
Reference: control
Endpoint: remaining activity
PNCK (Homo sapiens, UniProt Q6P2M8): 98.3%
CLK3 (Homo sapiens, UniProt P49761): 105%
CDC42BPB (Homo sapiens, UniProt Q9Y5S2): 102%
MAPK14 (Homo sapiens, UniProt Q16539): 96%
TLK2 (Homo sapiens, UniProt Q86UE8): 98.6%
MARK2 (Homo sapiens, UniProt Q7KZI7): 102%
DCLK2 (Homo sapiens, UniProt Q8N568): 97.4%
CLK4 (Homo sapiens, UniProt Q9HAZ1): 101%
Cyclin-dependent kinase 1, with cyclin A (CDK1, Homo sapiens, UniProt P06493): 82.7%
NEK3 (Homo sapiens, UniProt P51956): 90.2%
MAP2K1 (Homo sapiens, UniProt Q02750): 93.7%
ROCK1 (Homo sapiens, UniProt Q13464): 103%
KDR (Homo sapiens, UniProt P35968): 103%
PAK3 (Homo sapiens, UniProt O75914): 99.7%
DDR2 (Homo sapiens, UniProt Q16832): 95.1%

Set 2
SMILES: CN(C)C(=O)Cn1cc(-c2nc([C@@](C)(c3ccc(-c4cnc(N)nc4)cc3)C3CC3)no2)cn1
Technique: competition with immobilised ligand
Tested at: 1 µM
Endpoint: remaining binding
SBK1 (Homo sapiens, UniProt Q52WX2); cell-free assay: 87%
MAP3K19 (Homo sapiens, UniProt Q56UN5); cell-free assay: 61%
MKNK2 (Homo sapiens, UniProt Q9HBH9); cell-free assay: 88%
ACVR1B (Homo sapiens, UniProt P36896); cell-free assay: 89%
TXK (Homo sapiens, UniProt P42681); binding: 96%
SIK2 (Homo sapiens, UniProt Q9H0K1); cell-free assay: 93%

Set 3
Cell line: HaCaT
Tested at: 100 µM
Time: 18 h
Endpoint: viability
O=C1[C@@H]2[C@H]3CC[C@H](C3)[C@@H]2C(=O)N1C[C@@H]1CCCC[C@H]1CN1CCN(c2nsc3ccccc23)CC1: 90.2%
CCCCCCOC(=O)NC(=N)c1ccc(NCc2nc3cc(C(=O)N(CCC(=O)OCC)c4ccccn4)ccc3n2C)cc1: 32.9%
CC(=O)OCC(=O)[C@H]1CC[C@H]2[C@@H]3CCC4=CC(=O)CC[C@]4(C)[C@H]3CC[C@]12C: 97.1%
CC(C)(F)C[C@H](N[C@@H](c1ccc(-c2ccc(S(C)(=O)=O)cc2)cc1)C(F)(F)F)C(=O)NC1(C#N)CC1: 79.6%
CC(C)OC(=O)C(C(=O)OC(C)C)=C1SC=CS1: 32.5%

Set 4
Structure (SMILES): CO[C@@H]1[C@H](N(C)C(=O)c2ccccc2)C[C@H]2O[C@]1(C)n1c3ccccc3c3c4c(c5c6ccccc6n2c5c31)C(=O)NC4
Observed: enzyme activity
Action: inhibitor
Tested at: 1 µM
Endpoint: inhibition
MAST1 (Homo sapiens, UniProt Q9Y2H9): 23%
PIK3CA (Homo sapiens, UniProt P42336, Q546K): 16%
PIK3CB (Homo sapiens, UniProt P42338): 12%
SRMS (Homo sapiens, UniProt Q9H3Y6): 27%
EGFR (Homo sapiens, UniProt P00533, G719S): 0%
STK16 (Homo sapiens, UniProt O75716): 69%
MET (Homo sapiens, UniProt P08581): 61%
